Experimental data collected from several papers.
Each numbered part is a random draw from the data of one study; scales do not carry over between parts.
UniProt P32302, sequence (whole entry, looked up): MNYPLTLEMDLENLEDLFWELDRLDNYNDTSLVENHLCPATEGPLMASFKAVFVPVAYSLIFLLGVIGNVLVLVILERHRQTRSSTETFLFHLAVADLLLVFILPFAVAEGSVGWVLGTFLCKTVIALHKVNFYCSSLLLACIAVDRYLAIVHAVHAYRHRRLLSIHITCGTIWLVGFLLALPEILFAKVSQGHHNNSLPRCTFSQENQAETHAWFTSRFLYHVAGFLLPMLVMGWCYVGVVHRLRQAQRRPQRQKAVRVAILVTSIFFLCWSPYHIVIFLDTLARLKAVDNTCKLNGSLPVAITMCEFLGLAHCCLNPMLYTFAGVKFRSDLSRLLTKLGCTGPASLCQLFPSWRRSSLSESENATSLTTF
UniProt Q15349, sequence (whole entry, looked up): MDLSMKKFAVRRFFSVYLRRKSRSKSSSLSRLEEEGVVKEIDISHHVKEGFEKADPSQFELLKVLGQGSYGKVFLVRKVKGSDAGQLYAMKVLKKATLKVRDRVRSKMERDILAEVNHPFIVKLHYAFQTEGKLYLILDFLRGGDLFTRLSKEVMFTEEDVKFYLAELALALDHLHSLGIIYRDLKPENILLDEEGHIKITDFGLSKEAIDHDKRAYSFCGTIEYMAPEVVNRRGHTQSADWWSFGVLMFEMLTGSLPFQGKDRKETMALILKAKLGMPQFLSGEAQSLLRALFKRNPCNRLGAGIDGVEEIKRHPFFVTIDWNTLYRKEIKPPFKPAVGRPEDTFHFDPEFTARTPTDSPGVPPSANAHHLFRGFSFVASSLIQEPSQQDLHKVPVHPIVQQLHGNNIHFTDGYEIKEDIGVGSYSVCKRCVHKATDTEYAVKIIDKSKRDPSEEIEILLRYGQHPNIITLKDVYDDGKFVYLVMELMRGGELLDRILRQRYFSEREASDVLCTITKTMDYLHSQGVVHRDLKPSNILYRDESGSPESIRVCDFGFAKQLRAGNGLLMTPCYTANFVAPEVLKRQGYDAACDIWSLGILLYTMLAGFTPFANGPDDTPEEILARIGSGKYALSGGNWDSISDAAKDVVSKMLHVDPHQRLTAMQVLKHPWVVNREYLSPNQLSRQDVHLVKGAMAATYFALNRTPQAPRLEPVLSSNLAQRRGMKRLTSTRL
UniProt P06239, sequence (whole entry, looked up): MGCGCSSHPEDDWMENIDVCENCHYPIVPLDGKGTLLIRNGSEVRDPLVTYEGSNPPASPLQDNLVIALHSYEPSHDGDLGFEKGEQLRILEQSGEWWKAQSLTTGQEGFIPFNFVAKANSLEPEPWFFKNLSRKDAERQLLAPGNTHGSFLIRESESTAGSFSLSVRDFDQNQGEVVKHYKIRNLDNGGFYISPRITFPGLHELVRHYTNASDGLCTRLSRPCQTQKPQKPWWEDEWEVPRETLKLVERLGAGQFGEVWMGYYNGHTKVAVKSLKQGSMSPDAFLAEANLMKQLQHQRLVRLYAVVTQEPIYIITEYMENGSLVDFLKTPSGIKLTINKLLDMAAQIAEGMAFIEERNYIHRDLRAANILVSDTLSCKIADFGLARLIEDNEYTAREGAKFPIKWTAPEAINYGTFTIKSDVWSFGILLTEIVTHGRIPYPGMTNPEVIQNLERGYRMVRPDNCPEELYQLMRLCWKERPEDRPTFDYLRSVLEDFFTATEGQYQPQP
UniProt P42684, sequence (whole entry, looked up): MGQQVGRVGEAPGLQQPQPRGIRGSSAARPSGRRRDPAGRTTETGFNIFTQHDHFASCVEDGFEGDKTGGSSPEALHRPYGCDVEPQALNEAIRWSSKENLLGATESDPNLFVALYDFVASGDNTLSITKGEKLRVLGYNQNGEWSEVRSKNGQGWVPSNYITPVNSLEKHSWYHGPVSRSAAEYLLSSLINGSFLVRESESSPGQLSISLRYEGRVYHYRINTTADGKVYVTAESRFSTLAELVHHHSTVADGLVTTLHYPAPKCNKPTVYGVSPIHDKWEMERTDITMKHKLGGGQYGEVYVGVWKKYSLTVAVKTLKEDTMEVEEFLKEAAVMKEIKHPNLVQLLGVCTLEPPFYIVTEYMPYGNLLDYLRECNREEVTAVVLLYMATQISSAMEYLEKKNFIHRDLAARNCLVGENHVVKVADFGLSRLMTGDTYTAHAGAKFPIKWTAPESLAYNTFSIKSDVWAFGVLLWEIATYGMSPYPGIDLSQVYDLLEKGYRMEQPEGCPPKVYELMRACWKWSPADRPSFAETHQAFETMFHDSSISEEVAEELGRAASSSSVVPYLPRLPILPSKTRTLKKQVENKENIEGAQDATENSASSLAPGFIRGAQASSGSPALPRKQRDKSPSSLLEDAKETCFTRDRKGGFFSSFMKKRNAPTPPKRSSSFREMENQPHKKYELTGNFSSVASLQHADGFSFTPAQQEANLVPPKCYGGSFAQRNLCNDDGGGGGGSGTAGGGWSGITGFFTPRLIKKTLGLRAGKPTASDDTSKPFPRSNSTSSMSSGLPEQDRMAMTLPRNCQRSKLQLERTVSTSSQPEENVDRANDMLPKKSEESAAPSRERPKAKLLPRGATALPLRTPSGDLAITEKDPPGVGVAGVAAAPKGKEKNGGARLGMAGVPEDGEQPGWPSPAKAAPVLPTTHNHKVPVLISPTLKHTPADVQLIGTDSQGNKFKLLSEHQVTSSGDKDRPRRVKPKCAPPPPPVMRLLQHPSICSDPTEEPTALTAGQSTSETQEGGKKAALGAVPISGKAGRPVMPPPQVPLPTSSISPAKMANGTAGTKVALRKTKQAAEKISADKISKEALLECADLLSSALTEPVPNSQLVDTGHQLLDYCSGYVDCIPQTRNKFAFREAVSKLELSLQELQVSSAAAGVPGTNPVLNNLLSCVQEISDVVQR
UniProt P30291, sequence (whole entry, looked up): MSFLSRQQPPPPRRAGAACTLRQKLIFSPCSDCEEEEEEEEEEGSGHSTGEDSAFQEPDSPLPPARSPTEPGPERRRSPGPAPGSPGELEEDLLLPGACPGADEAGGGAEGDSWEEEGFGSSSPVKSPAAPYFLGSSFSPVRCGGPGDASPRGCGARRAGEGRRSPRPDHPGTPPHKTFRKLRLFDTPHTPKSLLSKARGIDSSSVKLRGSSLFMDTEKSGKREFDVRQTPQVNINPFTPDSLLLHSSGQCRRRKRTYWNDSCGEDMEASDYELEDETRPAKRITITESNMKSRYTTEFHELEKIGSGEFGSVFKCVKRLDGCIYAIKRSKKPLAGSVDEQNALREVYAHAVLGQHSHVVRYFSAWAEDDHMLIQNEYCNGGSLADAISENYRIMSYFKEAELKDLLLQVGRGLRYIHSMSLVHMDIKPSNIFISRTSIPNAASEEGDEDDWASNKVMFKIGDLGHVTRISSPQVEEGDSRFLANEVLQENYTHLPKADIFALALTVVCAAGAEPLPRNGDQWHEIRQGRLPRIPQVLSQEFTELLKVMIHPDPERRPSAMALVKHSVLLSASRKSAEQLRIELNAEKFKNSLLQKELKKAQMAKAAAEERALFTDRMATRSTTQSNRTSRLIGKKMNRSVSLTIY
UniProt P45985, sequence (whole entry, looked up): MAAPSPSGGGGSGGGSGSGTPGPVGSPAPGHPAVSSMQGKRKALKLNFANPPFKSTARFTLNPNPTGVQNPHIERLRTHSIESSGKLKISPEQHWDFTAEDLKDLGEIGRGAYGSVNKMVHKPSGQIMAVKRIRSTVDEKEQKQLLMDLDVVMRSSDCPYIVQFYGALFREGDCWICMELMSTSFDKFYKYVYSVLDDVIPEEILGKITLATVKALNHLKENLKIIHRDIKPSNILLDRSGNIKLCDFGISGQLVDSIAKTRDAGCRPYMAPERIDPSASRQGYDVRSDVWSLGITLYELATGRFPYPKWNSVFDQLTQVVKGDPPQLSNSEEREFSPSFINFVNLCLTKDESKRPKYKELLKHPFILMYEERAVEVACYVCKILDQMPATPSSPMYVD
UniProt Q96LB1, sequence (whole entry, looked up): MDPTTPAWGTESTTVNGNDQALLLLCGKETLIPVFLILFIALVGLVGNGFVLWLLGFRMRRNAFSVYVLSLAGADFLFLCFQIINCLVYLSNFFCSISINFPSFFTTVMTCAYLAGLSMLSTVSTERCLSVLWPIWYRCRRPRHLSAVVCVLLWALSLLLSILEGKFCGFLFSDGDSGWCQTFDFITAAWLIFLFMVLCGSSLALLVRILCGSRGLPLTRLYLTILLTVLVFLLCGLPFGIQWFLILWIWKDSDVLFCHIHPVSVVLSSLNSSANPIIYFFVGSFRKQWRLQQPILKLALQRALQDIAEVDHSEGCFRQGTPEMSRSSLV
UniProt Q13258, sequence (whole entry, looked up): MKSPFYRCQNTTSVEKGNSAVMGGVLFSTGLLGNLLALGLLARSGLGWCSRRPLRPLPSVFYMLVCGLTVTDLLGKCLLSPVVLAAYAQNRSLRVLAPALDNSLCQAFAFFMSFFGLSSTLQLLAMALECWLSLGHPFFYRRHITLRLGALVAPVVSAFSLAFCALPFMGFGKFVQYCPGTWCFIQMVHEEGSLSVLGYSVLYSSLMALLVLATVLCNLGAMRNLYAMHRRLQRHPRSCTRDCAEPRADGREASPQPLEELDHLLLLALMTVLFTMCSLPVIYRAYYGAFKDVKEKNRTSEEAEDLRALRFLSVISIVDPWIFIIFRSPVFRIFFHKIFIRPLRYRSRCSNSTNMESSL

Study 1
SMILES: CS(=O)(=O)CCNCc1ccc(-c2ccc3ncnc(Nc4ccc(OCc5cccc(F)c5)c(Cl)c4)c3c2)o1
Effect on: enzyme activity
Mode: inhibitor
Tested at: 0.5 µM
Reference: control
target | remaining activity [%]
CSNK1G2 (Homo sapiens, UniProt P78368) | 99.5
GRK7 (Homo sapiens, UniProt Q8WTQ7) | 95.8
MAP2K2 (Homo sapiens, UniProt P36507) | 106
TEK (Homo sapiens, UniProt Q02763) | 93.2
MAPK3 (Homo sapiens, UniProt P27361) | 94.8
ABL2 (Homo sapiens, UniProt P42684) | 97.3
ARAF (Homo sapiens, UniProt P10398) | 85
TAOK2 (Homo sapiens, UniProt Q9UL54) | 105
FGFR1 (Homo sapiens, UniProt P11362) | 102
GSK3B (Homo sapiens, UniProt P49841) | 103
LCK (Homo sapiens, UniProt P06239) | 94.2
RPS6KA2 (Homo sapiens, UniProt Q15349) | 84
MAP3K14 (Homo sapiens, UniProt Q99558) | 109
MAPKAPK2 (Homo sapiens, UniProt P49137) | 94.7
FRK (Homo sapiens, UniProt P42685) | 104
FGFR3 (Homo sapiens, UniProt P22607) | 96.7
NEK6 (Homo sapiens, UniProt Q9HC98) | 93.7
ACVR1B (Homo sapiens, UniProt P36896) | 98.7
JAK3 (Homo sapiens, UniProt P52333) | 96.2
TBK1 (Homo sapiens, UniProt Q9UHD2) | 103
MST1R (Homo sapiens, UniProt Q04912) | 92.2
MAP3K5 (Homo sapiens, UniProt Q99683) | 105
MERTK (Homo sapiens, UniProt Q12866) | 95.4
WEE1 (Homo sapiens, UniProt P30291) | 97.5

Study 2
Sample: 1,9-decadiene/PBS
pH: 7.4
Structure (SMILES) | logD
CC(C)C[C@@H]1NC(=O)[C@H](CC(C)C)NC(=O)[C@@H](CC(C)C)NC(=O)[C@H](Cc2cscn2)NC(=O)[C@@H](CCC(=O)N2CCCC2)NC(=O)[C@H](Cc2cscn2)NC(=O)[C@H](C)NC1=O | -2.7
CC(C)C[C@@H]1NC(=O)[C@H](CC(C)C)NC(=O)[C@H](CC(C)C)NC(=O)[C@H](Cc2cscn2)NC(=O)[C@@H](Cc2cscn2)NC(=O)[C@@H](CC(C)C)NC(=O)[C@H](C)NC1=O | -0.514
CC(C)C[C@@H]1NC(=O)[C@H](CC(C)C)NC(=O)[C@@H](CC(C)C)NC(=O)[C@H](C(C)C)NC(=O)[C@H](C)NC(=O)[C@@H](CC(C)C)NC(=O)[C@H](C)NC1=O | -0.306
CC(C)C[C@@H]1NC(=O)[C@H](C)NC(=O)[C@H](Cc2cscn2)NC(=O)[C@@H](CC(C)C)NC(=O)[C@H](C(C)C)NC(=O)[C@H](CC(C)C)NC(=O)[C@@H](CC(C)C)NC1=O | -0.573
CC(C)C[C@@H]1NC(=O)[C@@H](C)NC(=O)[C@@H](CC(C)C)NC(=O)[C@H](C)NC(=O)[C@H](C)NC(=O)[C@H](CC(C)C)NC(=O)[C@@H](CC(C)C)NC1=O | -2.1
CC(C)C[C@@H]1NC(=O)[C@H](CC(C)C)NC(=O)[C@@H](CC(C)C)NC(=O)[C@@H](C(C)C)NC(=O)[C@H](C)NC(=O)[C@H](CC(C)C)NC(=O)[C@@H](CC(C)C)NC1=O | 1.67

Study 3
Structure (SMILES): CNC(=O)Nc1ccc2c(c1)[C@@]1(CC2)OC(=O)N(CC(=O)N(Cc2ccc(F)cc2)[C@@H](C)C(F)(F)F)C1=O
Effect on: cell-free assay
Method: competition with immobilised ligand
Tested at: 1 µM
target | remaining binding
MAP2K4 (Homo sapiens, UniProt P45985) | 95%
WNK3 (Homo sapiens, UniProt Q9BYP7) | 63%
Ribosomal protein S6 kinase alpha-6, C-terminal kinase domain (RPS6KA6, Homo sapiens, UniProt Q9UK32) | 100%
EGFR (Homo sapiens, UniProt P00533, del747-750/T751S) | 100%
EGFR (Homo sapiens, UniProt P00533, L858R) | 100%

Study 4
Compound: NC(N)=NC(=O)c1nc(Cl)c(N2CCCCCC2)nc1N
Effect on: β-arrestin recruitment
Mode: agonist
Method: PRESTO-Tango
Tested at: 10 µM
Reference: untreated
target | fold over basal
HRH2 (Homo sapiens, UniProt P25021) | 1.42 fold
MRGPRX2 (Homo sapiens, UniProt Q96LB1) | 0.69
CXCR5 (Homo sapiens, UniProt P32302) | 1.03
PTGDR (Homo sapiens, UniProt Q13258) | 1.59

Study 5
Species: mouse
Sample: microsomes or S9
Tested at: 2 µM
Time: 0.5 h
SMILES | remaining compound [%]
COc1cc2c(cc1OC)-c1cc(-c3cc(C#N)n(C)c3C)c(C#N)c(=N)n1CC2 | 78.5
COc1ccc2c(c1)CCC(N1CCCCC1)C2O (stereo not drawn) | 59.9
O=C(CCCSc1ccc(NC(=O)C2CC2)nn1)Nc1cnc2ccccc2c1 | 30.1
COc1c(F)ccc(-c2cn([C@@H](CC(C)C)C(N)=O)nn2)c1F | 5.84
COc1cc(C2CCNCC2)ccc1Nc1ncc(Cl)c(Nc2ccccc2CS(=O)(=O)C(C)C)n1 | 74.3

Study 6
Cell line: mouse MPNST tumor cells
Method: high-content immunofluorescence imaging
Refers to: nuclear SOX9
Tested at: 10 µM
Time: 12 h
Setting: mean of 2 replicates
Reference: DMSO control
Reading: higher = more nuclear SOX9
SMILES | nuclear SOX9 intensity
CC(C)Oc1ccc2c(=O)c3cc(C(=O)O)ccc3oc2c1 | 94.9 % of DMSO
CCc1cccc2c3c([nH]c12)C(CC)(CC(=O)O)OCC3 (stereo not drawn) | 105 % of DMSO
CC(=O)NCC(=O)N1[C@@H]2CC[C@H]1c1ccc(Nc3ncc(C(F)(F)F)c(NC4CCC4)n3)cc12 | 68.5 % of DMSO
CC(C)c1cnn2c(NCc3ccccc3)cc(NCCCCCCN)nc12 | 111 % of DMSO
CN(C)C(=O)COC(=O)Cc1ccc(OC(=O)c2ccc(NC(=N)N)cc2)cc1 | 99 % of DMSO

Other studies, line by line
Target: Calcium/calmodulin-dependent protein kinase type II subunit alpha (CAMK2A, Homo sapiens, UniProt Q9UQM7)
UniProt Q9UQM7, sequence (whole entry, looked up): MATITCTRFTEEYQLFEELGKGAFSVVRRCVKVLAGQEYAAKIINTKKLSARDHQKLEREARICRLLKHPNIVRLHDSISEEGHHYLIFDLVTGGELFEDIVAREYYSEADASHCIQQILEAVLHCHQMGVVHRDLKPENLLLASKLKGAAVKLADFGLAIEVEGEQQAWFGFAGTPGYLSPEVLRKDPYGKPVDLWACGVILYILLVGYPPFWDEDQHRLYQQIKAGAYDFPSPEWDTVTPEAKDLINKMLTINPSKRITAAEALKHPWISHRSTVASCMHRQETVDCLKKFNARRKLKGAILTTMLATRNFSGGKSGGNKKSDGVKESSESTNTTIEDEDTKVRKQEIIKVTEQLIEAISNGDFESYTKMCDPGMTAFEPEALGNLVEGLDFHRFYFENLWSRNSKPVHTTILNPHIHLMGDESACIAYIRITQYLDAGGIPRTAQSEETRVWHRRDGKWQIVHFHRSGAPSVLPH
Effect on: enzyme activity
Mode: inhibitor
Tested at: 10 µM
Structure (SMILES) | inhibition [%]
CC1=C(CC[C@H](C)CO[C@@H]2O[C@H](CO)[C@@H](O)[C@H](O)[C@H]2O)O[C@H]2C[C@H]3[C@@H]4CC[C@@H]5C[C@@H](O[C@@H]6O[C@H](CO)[C@H](O)[C@H](O)[C@H]6O[C@@H]6O[C@H](CO)[C@@H](O)[C@H](O)[C@H]6O)CC[C@]5(C)[C@H]4CC[C@]3(C)[C@@H]12 | -21
CCN1CCN(c2ccc(Nc3cc(N(C)C(=O)Nc4c(Cl)c(OC)cc(OC)c4Cl)ncn3)cc2)CC1 | 12
